# Published values gathered from unrelated publications.
# By UniProt entry, the sequences of proteins in these tests, tags left out. Chains listed by the source or under a name are the forms on record and can include a tag or linker. Residues count along the entry.
# UniProt Q8I719, whole entry: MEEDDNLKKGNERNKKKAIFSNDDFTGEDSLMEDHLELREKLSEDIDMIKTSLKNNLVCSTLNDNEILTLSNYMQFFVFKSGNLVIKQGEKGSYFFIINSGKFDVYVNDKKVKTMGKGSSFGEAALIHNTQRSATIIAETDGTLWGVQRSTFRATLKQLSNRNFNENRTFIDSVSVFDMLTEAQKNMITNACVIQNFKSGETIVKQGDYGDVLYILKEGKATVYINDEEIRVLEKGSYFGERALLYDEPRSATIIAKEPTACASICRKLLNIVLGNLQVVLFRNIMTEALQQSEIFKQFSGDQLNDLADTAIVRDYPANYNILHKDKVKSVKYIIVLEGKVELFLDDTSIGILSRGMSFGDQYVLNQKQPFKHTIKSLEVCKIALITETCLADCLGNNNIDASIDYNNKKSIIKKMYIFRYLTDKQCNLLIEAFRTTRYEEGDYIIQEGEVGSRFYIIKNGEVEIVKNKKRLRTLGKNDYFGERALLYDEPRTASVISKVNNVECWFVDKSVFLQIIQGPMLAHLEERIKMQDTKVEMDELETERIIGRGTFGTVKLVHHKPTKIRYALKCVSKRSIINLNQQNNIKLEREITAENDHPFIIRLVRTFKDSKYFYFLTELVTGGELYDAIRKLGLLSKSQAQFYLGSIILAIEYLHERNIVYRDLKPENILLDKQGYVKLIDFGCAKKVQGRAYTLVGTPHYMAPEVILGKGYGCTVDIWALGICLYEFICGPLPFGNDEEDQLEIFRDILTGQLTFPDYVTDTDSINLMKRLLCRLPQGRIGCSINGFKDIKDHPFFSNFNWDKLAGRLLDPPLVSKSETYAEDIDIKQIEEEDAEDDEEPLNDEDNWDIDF
# UniProt Q9GZN0, whole entry: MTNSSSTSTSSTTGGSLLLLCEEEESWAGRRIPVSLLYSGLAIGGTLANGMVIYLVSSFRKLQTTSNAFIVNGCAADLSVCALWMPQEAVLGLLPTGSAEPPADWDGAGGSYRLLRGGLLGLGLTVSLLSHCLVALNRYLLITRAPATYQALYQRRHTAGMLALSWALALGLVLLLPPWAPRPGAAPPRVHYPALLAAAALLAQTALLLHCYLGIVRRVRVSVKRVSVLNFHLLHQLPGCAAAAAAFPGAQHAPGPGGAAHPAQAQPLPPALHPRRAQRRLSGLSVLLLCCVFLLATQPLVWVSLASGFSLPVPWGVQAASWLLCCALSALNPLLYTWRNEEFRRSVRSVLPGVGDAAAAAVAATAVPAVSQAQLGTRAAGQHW
# UniProt P08510, 1-655 with tags or gaps DEL6-46: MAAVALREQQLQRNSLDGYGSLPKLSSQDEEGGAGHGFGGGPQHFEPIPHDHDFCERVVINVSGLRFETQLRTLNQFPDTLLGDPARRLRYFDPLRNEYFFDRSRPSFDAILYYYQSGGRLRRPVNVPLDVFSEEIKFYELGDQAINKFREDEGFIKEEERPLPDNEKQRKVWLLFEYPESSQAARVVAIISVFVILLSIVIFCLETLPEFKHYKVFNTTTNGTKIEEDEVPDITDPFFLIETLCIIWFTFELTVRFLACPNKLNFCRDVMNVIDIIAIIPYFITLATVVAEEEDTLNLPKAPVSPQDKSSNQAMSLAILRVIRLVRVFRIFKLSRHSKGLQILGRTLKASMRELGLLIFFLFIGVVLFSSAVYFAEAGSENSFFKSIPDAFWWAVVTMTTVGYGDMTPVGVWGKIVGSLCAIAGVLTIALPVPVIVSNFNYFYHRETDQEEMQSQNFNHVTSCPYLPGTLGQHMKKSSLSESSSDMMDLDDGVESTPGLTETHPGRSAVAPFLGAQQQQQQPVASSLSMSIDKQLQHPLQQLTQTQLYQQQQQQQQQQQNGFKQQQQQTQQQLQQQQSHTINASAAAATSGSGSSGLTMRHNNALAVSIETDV
# UniProt Q16881, 151-649 limits assumed: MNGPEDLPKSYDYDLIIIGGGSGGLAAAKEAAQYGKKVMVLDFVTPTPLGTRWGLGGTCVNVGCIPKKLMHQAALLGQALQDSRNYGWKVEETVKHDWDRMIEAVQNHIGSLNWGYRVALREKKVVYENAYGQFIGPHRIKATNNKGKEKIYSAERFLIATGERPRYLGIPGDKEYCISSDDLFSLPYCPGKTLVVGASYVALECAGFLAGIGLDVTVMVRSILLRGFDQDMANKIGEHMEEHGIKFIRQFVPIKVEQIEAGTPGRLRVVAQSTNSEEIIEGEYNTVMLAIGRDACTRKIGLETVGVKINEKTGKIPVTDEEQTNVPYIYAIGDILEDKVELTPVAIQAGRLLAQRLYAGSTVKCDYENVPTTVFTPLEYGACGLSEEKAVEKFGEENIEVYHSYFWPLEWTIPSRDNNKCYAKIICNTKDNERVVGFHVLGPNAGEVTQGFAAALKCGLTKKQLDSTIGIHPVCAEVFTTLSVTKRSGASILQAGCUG
# UniProt P37136, 32-574 limits assumed: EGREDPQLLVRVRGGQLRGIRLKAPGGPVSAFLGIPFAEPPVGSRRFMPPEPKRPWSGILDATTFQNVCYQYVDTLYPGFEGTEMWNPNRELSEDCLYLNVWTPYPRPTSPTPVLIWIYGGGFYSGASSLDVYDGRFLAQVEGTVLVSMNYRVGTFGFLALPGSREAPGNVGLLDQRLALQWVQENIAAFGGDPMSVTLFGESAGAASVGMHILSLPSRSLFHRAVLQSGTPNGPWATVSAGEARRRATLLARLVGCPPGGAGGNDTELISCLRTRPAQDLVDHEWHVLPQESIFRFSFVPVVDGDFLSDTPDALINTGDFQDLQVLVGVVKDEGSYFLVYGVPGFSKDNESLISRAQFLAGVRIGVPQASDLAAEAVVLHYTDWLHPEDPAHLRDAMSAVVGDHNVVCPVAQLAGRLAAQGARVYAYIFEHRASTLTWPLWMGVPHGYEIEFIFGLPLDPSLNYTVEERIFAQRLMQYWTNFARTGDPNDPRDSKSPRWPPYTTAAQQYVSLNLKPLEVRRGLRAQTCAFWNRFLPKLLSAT
# Each line is one published result; not all experiments were run side by side. Numbers after ± are the reported error.
# PKG: cGMP-dependent protein kinase (PKG, Plasmodium falciparum, UniProt Q8I719)
# G protein-coupled receptor 88: G protein-coupled receptor 88 (Homo sapiens, UniProt Q9GZN0)
Structure (SMILES),tested on,assay,system,setting,endpoint,result
CCN(CC)Cc1onc(-c2cccc(Cl)c2)c1-c1ccnc(N[C@@H]2CCN(C(=O)c3ccn(C)n3)C2)n1,PKG,"kinase activity, ATP-competitive inhibitor, IMAP kinetics",,,Ki,2.4 ± 1 nM
Oc1nc(/C=C/c2ccc(Cl)cc2Cl)cc(C(F)(F)F)n1,"Replicase polyprotein 1ab, nsp16 with nsp10 (rep, Severe acute respiratory syndrome coronavirus 2, UniProt P0DTD1)",enzyme activity,,0 h preincubation,IC50,> 100000 nM
CC[C@H](C)[C@H](NC(=O)[C@H](C)NC(=O)[C@H](CCC(=O)O)NC(=O)[C@H](CCC(=O)O)NC(=O)[C@H](CC(C)C)NC(=O)[C@H](CCCCN)NC(=O)[C@H](CCCCN)NC(=O)[C@H](CCSC)NC(=O)[C@H](CCC(=O)O)NC(=O)[C@H](Cc1ccc(O)cc1)NC(=O)[C@H](CCC(=O)O)NC(=O)[C@H](CC(C)C)NC(=O)[C@H](CC(=O)O)NC(=O)[C@H](CC(C)C)NC(=O)[C@H](Cc1ccccc1)NC(=O)[C@H](Cc1ccc(O)cc1)NC(=O)[C@@H](NC(=O)[C@H](CC(N)=O)NC(=O)[C@@H](NC(=O)[C@H](CCC(N)=O)NC(=O)[C@H](CC(=O)O)NC(=O)[C@H](CC(C)C)NC(=O)[C@@H](N)CO)[C@@H](C)CC)C(C)C)C(=O)N[C@@H](CCCCN)C(=O)N[C@@H](CCCCN)C(=O)N[C@@H](CC(C)C)C(=O)N[C@@H](CCC(=O)O)C(=O)N[C@@H](CCC(=O)O)C(=O)N[C@@H](C)C(=O)N[C@@H](Cc1ccc(O)cc1)C(=O)N[C@H](C(=O)N[C@@H](CC(=O)O)C(=O)N[C@@H](CC(C)C)C(=O)N[C@@H](CCCCN)C(=O)N[C@@H](CCC(=O)O)C(=O)N[C@@H](CC(C)C)C(=O)O)[C@@H](C)CC,SARS-CoV-2 EG.5.1 pseudovirus,"pseudovirus infection, inhibitor, luciferase",Caco-2,"24 h, dual mutations",IC50,159 nM
CC[C@H](C)[C@@H]1NC(=O)[C@H](CCCNC(=N)N)NC(=O)[C@@H](N)CSSC[C@@H]2NC(=O)[C@@H]3CSSC[C@@H](C(=O)N[C@H](C(=O)O)C(C)C)NC(=O)[C@H](CCCCN)NC(=O)[C@H](CC(N)=O)NC(=O)[C@H](Cc4ccccc4)NC(=O)[C@H](CCCNC(=N)N)NC(=O)[C@H](CC(N)=O)NC(=O)[C@H](CSSC[C@H](NC(=O)[C@H](CCCCN)NC(=O)[C@H](CCC(N)=O)NC(=O)[C@H](CC(N)=O)NC(=O)[C@@H]4C[C@@H](O)CN4C1=O)C(=O)N[C@@H](Cc1ccccc1)C(=O)N[C@@H](CCC(N)=O)C(=O)N[C@@H](Cc1c[nH]cn1)C(=O)N[C@@H](CC(C)C)C(=O)N[C@@H](CC(=O)O)C(=O)N[C@@H](CC(=O)O)C(=O)N3)NC(=O)[C@H](CCCCN)NC(=O)[C@H](CCCNC(=N)N)NC(=O)[C@H](CO)NC2=O,"Sh (Drosophila melanogaster, UniProt P08510, del6-46)","potassium current, patch clamp, pooled data",,zero voltage,Kd,300 ± 40 nM
CCCN(C)Cc1onc(-c2cccc(Cl)c2)c1-c1ccnc(N[C@@H]2CCN(C(=O)c3ccn(C)n3)C2)n1,PKG,"kinase activity, inhibitor, IMAP",,"added: ATP 10 µM, FAM-PKAtide",IC50,425 ± 133 nM
CC(=O)Oc1ccc(CON2C(=O)CCC2=O)cc1,"Thioredoxin reductase 1, cytoplasmic (TXNRD1, Homo sapiens, UniProt Q16881)","enzyme activity, inhibitor, DTNB reduction, two-step kinetics",,,Ki,4200 ± 300 nM
CC[C@H](C)[C@H](N)CN(C(=O)C1CC1c1ccccn1)c1ccc(C2CCCCC2)cc1 (relative stereo),G protein-coupled receptor 88,agonist,,,EC50,283 nM
CC[C@H](C)[C@H](NC(=O)[C@H](C)NC(=O)[C@H](CCC(=O)O)NC(=O)[C@H](CCC(=O)O)NC(=O)[C@H](CC(C)C)NC(=O)[C@H](CCCCN)NC(=O)[C@H](CCCCN)NC(=O)[C@H](CCSC)NC(=O)[C@H](CCC(=O)O)NC(=O)[C@H](Cc1ccc(O)cc1)NC(=O)[C@H](CCC(=O)O)NC(=O)[C@H](CC(C)C)NC(=O)[C@H](CC(=O)O)NC(=O)[C@H](CC(C)C)NC(=O)[C@H](Cc1ccccc1)NC(=O)[C@H](Cc1ccccc1)NC(=O)[C@@H](NC(=O)[C@H](CC(N)=O)NC(=O)[C@@H](NC(=O)[C@H](CCC(N)=O)NC(=O)[C@H](CC(=O)O)NC(=O)[C@H](CC(C)C)NC(=O)[C@@H](N)CO)[C@@H](C)CC)C(C)C)C(=O)N[C@@H](CCCCN)C(=O)N[C@@H](CCCCN)C(=O)N[C@@H](CC(C)C)C(=O)N[C@@H](CCC(=O)O)C(=O)N[C@@H](CCC(=O)O)C(=O)N[C@@H](C)C(=O)N[C@@H](Cc1ccc(O)cc1)C(=O)N[C@H](C(=O)N[C@@H](CC(=O)O)C(=O)N[C@@H](CC(C)C)C(=O)N[C@@H](CCCCN)C(=O)N[C@@H](CCC(=O)O)C(=O)N[C@@H](CC(C)C)C(=O)O)[C@@H](C)CC,SARS-CoV-2 Delta pseudovirus,"pseudovirus infection, inhibitor, luciferase",Caco-2,"24 h, dual mutations",IC50,813 nM
CCCCCCc1ccc(N(C[C@@H](N)[C@@H](C)CC)C(=O)C2CC2c2ccccn2)cc1 (relative stereo),G protein-coupled receptor 88,agonist,,,EC50,421 nM
CS(=O)(=O)Cc1onc(-c2cccc(Cl)c2)c1-c1ccnc(N[C@@H]2CCN(C(=O)c3nccs3)C2)n1,PKG,"kinase activity, ATP-competitive inhibitor, IMAP kinetics",,,Ki,1.3 ± 0.4 nM
CCOP(=O)(OCC)ON1C(=O)c2cccc3cccc(c23)C1=O,"Acetylcholinesterase (Ache, Rattus norvegicus, UniProt P37136)","enzyme activity, inhibitor, discontinuous Ellman","rat, postnatal day 12, rat heart homogenate","15 min, 37 °C",IC50,11 nM

# Repeated from above:
Structure (SMILES),tested on,assay,system,setting,endpoint,result
CC(=O)Oc1ccc(CON2C(=O)CCC2=O)cc1,"Thioredoxin reductase 1, cytoplasmic (TXNRD1, Homo sapiens, UniProt Q16881)","enzyme activity, inhibitor, DTNB reduction, two-step kinetics",,,Ki,4200 ± 300 nM
